Measurements pooled from the literature.
Each line is one published result; not all experiments were run side by side. Numbers after ± are the reported error.

Compound | target | test | system | conditions | IC50
CCCCO[C@H]1[C@H](O)[C@@H](N)[C@@H](O[C@H]2[C@H](O[C@@H]3O[C@H](CO)[C@@H](O[C@H]4O[C@@H](CN)[C@@H](O)[C@H](O)[C@H]4N)[C@H]3O)[C@@H](O)[C@H](N)C[C@@H]2N)O[C@@H]1CO | ribosome with human cytosolic A site | luciferase translation, cell-free translation | – | – | 161 ± 13.9 µg/mL
C/C=C1\NC(=O)[C@H](Cc2ccccc2)NC(=O)[C@H](C(C)C)NC(=O)[C@H](Cc2ccccc2)NC(=O)[C@H](CCC(N)=O)NC(=O)[C@H](Cc2c[nH]c3ccccc23)NC(=O)[C@H]2CSC[C@@H](C(=O)N[C@@H](CO)C(=O)O)NC(=O)[C@H](CSC[C@H]3NC(=O)[C@H]([C@@H](C)CC)NC(=O)[C@H](NC(=O)[C@H](Cc4c[nH]cn4)NC(=O)[C@@H](NC(=O)[C@@H](NC(=O)CNC(=O)[C@H](CO)NC(=O)CNC(=O)CNC(=O)[C@@H](N)CCCCN)C(C)C)[C@@H](C)CC)[C@H](C)SC[C@H](NC(=O)[C@H](CCC(=O)O)NC(=O)[C@H](Cc4c[nH]cn4)NC3=O)C(=O)N[C@@H](CC(N)=O)C(=O)N[C@@H](CCSC)C(=O)N[C@@H](CC(N)=O)C(=O)N2)NC1=O | PBP1b, Escherichia coli | transglycosylation, inhibitor | – | added: [14C]GlcNAc-labelled lipid II | 12 ± 2.3 µM
CC1OCC2OC(OC3C(N)CC(N)C(O)C3OC3OC(CO)C(OC4OC(CN)C(O)C(O)C4N)C3O)C(N)C(O)C2O1 (stereo not shown) | ribosome with human cytosolic A site | luciferase translation, cell-free translation | – | – | 126 ± 71.7 µg/mL
COc1ccc2ccc3c(c2c1)C=[N+]1C2CCCCC2[N+]2=Cc4cccc(OC)c4[O][Au-]21[O]3.F[P-](F)(F)(F)(F)F (stereo not shown) | Klebsiella pneumoniae glutathione reductase | cellular enzyme activity, inhibitor | Klebsiella pneumoniae, carbapenem-resistant | 4 h | 6.4 µM
C/C=C1\NC(=O)[C@H](Cc2ccccc2)NC(=O)[C@H](C(C)C)NC(=O)[C@H](Cc2c[nH]cn2)NC(=O)[C@H](CCC(N)=O)NC(=O)[C@H](Cc2c[nH]c3ccccc23)NC(=O)[C@H]2CSC[C@@H](C(=O)N[C@@H](CO)C(=O)O)NC(=O)[C@H](CSC[C@H]3NC(=O)[C@H]([C@@H](C)CC)NC(=O)[C@H](NC(=O)[C@H](Cc4c[nH]cn4)NC(=O)[C@@H](NC(=O)[C@@H](NC(=O)CNC(=O)[C@H](CO)NC(=O)CNC(=O)CNC(=O)[C@@H](N)CCCCN)C(C)C)[C@@H](C)CC)[C@H](C)SC[C@H](NC(=O)[C@H](CCC(=O)O)NC(=O)[C@H](Cc4c[nH]cn4)NC3=O)C(=O)N[C@@H](CCCNC(=N)N)C(=O)N[C@@H](CCSC)C(=O)N[C@@H](CC(N)=O)C(=O)N2)NC1=O | PBP1b, Escherichia coli | transglycosylation, inhibitor | – | added: [14C]GlcNAc-labelled lipid II | 7 ± 2.9 µM
CC[C@H](C)[C@@H]1NC(=O)[C@H](Cc2ccc(O)cc2)NC(=O)[C@@H](N)CSSC[C@@H](C(=O)N2CCC[C@H]2C(=O)N2CCC[C@H]2C(=O)NCC(N)=O)NC(=O)[C@H](CC(N)=O)NC(=O)[C@H](CCC(N)=O)NC1=O | oxytocin receptor (titi monkey) | membrane hyperpolarisation | CHO cells | – | 3.86e-05 µM
COc1ccc2ccc3c(c2c1)C=[N+]1C2CCCCC2[N+]2=Cc4ccc(OCCN5CCCCC5)cc4[O][Au-]21[O]3.F[P-](F)(F)(F)(F)F (stereo not shown) | Klebsiella pneumoniae glutathione reductase | inhibitor | carbapenem-resistant | added: GSSG and NADPH | 5.39 µM
CCCCCCCCC(=O)NCc1ccc(O)c(OC)c1 | mAb 2-LD2 | antibody binding, indirect competitive ELISA | – | added: coating antigen hapten 3-OVA | 0.00121 µg/mL
C=CCO[C@H]1[C@H](O)[C@@H](N)[C@@H](O[C@H]2[C@H](O[C@@H]3O[C@H](CO)[C@@H](O[C@H]4O[C@@H](CN)[C@@H](O)[C@H](O)[C@H]4N)[C@H]3O)[C@@H](O)[C@H](N)C[C@@H]2N)O[C@@H]1CO | Mycobacterium smegmatis ribosome wild type | translation, cell-free luciferase synthesis | – | – | 0.14 ± 0.04 µg/mL
C/C=C1\NC(=O)[C@H](Cc2ccccc2)NC(=O)[C@H](C(C)C)NC(=O)[C@H](Cc2ccncc2)NC(=O)[C@H](CCC(N)=O)NC(=O)[C@H](Cc2ccc3ccccc3c2)NC(=O)[C@H]2CSC[C@@H](C(=O)N[C@@H](CO)C(=O)O)NC(=O)[C@H](CSC[C@H]3NC(=O)[C@H]([C@@H](C)CC)NC(=O)[C@H](NC(=O)[C@H](Cc4c[nH]cn4)NC(=O)[C@@H](NC(=O)[C@@H](NC(=O)CNC(=O)[C@H](CO)NC(=O)CNC(=O)CNC(=O)[C@@H](N)CCCCN)C(C)C)[C@@H](C)CC)[C@H](C)SC[C@H](NC(=O)[C@H](CCC(=O)O)NC(=O)[C@H](Cc4c[nH]cn4)NC3=O)C(=O)N[C@@H](CCCNC(=N)N)C(=O)N[C@@H](CCSC)C(=O)N[C@@H](CC(N)=O)C(=O)N2)NC1=O | PBP1b, Escherichia coli | transglycosylation, inhibitor | – | added: [14C]GlcNAc-labelled lipid II | 105 ± 34 µM
